Assay results pooled from the literature.
Every numbered part comes from another study and shows a few of its results, in no order. Values joined by “and” are separate records of one study, mostly repeats; a detail may differ.
Sequence of UniProt Q96D53 (whole entry, looked up): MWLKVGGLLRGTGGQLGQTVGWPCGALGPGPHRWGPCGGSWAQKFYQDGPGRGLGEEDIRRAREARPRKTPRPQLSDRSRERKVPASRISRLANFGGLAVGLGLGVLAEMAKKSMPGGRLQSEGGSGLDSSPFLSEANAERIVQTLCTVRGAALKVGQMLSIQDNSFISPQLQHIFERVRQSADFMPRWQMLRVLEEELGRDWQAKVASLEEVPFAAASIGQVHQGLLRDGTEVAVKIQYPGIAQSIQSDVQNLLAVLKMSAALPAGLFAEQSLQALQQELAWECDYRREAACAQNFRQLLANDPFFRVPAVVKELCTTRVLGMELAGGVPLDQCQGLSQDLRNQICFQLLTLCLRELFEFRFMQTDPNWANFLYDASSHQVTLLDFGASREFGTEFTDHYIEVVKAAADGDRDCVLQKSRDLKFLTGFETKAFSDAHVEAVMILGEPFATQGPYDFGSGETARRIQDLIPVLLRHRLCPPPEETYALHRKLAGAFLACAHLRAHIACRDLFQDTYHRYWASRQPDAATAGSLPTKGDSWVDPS
Sequence of UniProt O95747 (whole entry, looked up): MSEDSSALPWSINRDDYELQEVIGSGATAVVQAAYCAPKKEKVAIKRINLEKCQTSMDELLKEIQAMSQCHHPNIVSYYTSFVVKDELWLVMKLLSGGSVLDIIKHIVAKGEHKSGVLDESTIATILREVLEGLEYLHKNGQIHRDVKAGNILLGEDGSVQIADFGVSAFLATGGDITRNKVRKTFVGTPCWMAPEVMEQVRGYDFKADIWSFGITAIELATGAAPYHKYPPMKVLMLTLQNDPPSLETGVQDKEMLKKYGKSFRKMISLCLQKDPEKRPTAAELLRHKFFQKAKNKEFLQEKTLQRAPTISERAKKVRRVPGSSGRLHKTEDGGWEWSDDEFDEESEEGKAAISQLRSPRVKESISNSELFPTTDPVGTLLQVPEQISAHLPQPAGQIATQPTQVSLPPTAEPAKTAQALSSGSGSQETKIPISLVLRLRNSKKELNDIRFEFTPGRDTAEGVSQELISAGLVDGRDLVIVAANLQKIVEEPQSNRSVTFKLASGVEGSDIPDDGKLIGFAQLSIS
Sequence of UniProt P04629 (whole entry, looked up): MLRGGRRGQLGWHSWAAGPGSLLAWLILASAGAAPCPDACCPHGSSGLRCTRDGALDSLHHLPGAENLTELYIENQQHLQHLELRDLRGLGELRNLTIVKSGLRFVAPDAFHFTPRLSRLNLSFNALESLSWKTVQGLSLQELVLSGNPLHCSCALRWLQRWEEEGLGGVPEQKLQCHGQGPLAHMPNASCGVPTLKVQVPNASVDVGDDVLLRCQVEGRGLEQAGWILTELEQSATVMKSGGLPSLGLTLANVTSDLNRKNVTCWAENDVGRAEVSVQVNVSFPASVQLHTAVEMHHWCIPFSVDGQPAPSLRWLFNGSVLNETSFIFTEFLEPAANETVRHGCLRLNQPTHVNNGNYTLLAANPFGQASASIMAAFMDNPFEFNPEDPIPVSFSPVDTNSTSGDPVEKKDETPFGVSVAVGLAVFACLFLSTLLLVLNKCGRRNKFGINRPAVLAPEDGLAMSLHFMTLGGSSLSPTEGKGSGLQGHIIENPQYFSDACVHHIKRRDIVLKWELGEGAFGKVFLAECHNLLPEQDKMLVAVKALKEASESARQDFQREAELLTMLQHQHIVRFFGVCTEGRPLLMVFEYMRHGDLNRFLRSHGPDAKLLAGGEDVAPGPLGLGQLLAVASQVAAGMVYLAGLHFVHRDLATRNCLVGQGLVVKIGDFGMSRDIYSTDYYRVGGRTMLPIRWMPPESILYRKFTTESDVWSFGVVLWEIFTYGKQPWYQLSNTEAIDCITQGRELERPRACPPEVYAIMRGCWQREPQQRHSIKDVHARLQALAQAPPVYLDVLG
Sequence of UniProt Q96PY6 (whole entry, looked up): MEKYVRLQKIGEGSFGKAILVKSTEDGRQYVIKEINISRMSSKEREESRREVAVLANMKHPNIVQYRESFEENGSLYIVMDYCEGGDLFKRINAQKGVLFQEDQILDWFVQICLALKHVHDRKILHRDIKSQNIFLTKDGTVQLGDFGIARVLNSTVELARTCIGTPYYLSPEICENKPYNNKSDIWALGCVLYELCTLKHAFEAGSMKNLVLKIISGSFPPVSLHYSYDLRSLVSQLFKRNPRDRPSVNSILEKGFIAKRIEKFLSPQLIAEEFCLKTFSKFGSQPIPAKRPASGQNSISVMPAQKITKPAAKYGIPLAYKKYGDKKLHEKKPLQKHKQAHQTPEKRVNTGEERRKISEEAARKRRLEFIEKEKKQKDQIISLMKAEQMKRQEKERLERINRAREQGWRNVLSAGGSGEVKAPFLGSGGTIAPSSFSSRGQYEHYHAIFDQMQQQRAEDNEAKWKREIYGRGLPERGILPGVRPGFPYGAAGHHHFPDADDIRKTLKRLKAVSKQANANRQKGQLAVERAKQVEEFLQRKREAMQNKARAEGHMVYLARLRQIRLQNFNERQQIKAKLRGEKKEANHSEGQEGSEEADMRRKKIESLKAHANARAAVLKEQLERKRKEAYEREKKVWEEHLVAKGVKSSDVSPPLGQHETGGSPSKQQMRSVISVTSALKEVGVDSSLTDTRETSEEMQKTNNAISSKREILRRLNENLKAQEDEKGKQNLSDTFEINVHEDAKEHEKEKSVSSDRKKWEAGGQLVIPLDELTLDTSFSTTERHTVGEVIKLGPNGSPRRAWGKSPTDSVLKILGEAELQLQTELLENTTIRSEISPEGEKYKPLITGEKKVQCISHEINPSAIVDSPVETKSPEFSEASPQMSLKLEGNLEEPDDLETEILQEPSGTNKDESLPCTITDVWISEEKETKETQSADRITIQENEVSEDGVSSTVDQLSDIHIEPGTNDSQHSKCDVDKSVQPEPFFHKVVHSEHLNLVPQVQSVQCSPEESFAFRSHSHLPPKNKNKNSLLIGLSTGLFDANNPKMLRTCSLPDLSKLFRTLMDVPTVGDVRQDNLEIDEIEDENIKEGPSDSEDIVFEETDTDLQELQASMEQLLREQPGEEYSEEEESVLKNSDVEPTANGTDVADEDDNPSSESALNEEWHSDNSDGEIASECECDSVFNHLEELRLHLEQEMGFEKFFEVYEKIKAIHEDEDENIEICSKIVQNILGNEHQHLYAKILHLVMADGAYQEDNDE
Sequence of UniProt P07949 (whole entry, looked up): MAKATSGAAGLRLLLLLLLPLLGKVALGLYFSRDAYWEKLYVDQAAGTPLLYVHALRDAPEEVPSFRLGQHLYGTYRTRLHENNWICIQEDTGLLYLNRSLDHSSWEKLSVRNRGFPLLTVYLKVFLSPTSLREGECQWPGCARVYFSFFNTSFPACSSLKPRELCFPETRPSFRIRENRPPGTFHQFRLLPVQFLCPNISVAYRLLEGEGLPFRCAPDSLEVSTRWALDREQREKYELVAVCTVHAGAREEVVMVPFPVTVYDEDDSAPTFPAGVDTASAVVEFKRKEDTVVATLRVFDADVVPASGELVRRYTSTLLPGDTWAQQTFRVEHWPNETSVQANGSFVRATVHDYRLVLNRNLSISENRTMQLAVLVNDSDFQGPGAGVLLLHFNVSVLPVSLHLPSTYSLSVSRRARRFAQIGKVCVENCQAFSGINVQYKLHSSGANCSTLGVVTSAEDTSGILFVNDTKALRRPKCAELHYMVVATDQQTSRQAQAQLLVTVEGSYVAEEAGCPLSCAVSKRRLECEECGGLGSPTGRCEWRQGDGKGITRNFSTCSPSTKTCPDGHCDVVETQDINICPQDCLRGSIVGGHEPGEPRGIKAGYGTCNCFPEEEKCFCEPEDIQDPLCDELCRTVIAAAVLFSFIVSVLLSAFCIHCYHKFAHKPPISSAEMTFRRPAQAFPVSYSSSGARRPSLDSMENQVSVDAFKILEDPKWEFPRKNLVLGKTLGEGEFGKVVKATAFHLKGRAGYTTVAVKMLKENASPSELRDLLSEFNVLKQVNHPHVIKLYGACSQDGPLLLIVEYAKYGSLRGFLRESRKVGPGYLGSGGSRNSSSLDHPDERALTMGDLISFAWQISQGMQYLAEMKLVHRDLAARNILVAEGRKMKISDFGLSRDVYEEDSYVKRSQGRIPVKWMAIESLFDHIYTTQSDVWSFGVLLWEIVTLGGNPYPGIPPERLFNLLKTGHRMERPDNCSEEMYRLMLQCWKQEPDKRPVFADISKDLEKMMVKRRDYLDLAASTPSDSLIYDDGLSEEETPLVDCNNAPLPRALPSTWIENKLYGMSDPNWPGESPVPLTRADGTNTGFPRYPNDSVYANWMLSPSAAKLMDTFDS
Sequence of UniProt P49336 (whole entry, looked up): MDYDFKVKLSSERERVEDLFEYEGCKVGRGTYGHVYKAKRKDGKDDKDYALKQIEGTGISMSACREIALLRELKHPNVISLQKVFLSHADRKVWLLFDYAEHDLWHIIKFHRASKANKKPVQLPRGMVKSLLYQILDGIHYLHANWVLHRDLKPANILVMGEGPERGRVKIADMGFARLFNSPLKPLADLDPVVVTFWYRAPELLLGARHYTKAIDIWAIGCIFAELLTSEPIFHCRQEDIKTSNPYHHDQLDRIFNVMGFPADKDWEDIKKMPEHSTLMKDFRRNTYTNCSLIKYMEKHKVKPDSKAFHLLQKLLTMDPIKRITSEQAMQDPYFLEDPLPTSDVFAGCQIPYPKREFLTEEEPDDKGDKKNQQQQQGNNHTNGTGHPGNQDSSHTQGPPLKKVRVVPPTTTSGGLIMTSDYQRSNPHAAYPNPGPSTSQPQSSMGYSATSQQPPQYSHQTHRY
Sequence of UniProt P11802 (whole entry, looked up): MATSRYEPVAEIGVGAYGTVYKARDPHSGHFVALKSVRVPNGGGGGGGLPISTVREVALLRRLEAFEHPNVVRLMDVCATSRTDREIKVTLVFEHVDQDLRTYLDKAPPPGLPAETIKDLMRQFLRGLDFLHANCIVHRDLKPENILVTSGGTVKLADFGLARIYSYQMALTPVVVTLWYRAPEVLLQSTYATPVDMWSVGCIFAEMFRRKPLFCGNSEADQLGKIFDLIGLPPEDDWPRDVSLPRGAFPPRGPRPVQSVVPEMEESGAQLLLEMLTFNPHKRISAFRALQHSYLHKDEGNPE

Study 1
Compound: CN1CCN(c2cnc3c(C4CCN(C(=O)c5ccc(OC(F)(F)F)cc5N)CC4)ncnc3c2)CC1
Read-out: cell-free assay
Technique: competition with immobilised ligand
Concentration: 1 µM
Endpoint: remaining binding
Cyclin-dependent kinase 4, with cyclin D1 (CDK4, Homo sapiens, UniProt P11802): 98%
COQ8B (Homo sapiens, UniProt Q96D53): 100%
NEK1 (Homo sapiens, UniProt Q96PY6): 85%
MST1R (Homo sapiens, UniProt Q04912): 90%
RET (Homo sapiens, UniProt P07949): 100%
CDK8 (Homo sapiens, UniProt P49336): 100%
STK33 (Homo sapiens, UniProt Q9BYT3): 99%
EGFR (Homo sapiens, UniProt P00533): 99%
ROS1 (Homo sapiens, UniProt P08922): 100%
NTRK1 (Homo sapiens, UniProt P04629): 100%
OXSR1 (Homo sapiens, UniProt O95747): 100%
EPHB4 (Homo sapiens, UniProt P54760): 100%
IRAK1 (Homo sapiens, UniProt P51617): 100%

Study 2
Compound: CC(C)n1cnc(-c2ccc(F)cc2)c1-c1ncc(C(=O)Nc2ccc(N3CCN(C)CC3)cc2)[nH]1
Technique: phase 2a trial
Host: idiopathic pulmonary fibrosis patients
Endpoint: patients with hypothyroidism
60 mg once daily, grade 2 emergent event: 0%
60 mg once daily, grade 4 emergent event: 0%
30 mg once daily, grade 2 emergent event: 0%

Study 3
SMILES: CC(C)(C(=O)O)[C@H](NC(=O)Cc1cccc(I)c1)c1ccc2oc(=O)[nH]c2c1
Technique: Incucyte 3D growth
Concentration: 30 µM
Reading: higher = more growth
Endpoint: spheroid area
MEL-JUSO; 180.52 h: 1.51e+07 a.u. and 1.69e+07 a.u. and 1.95e+07 a.u. and 1.7e+07 a.u. and 1.64e+07 a.u. and 2e+07 a.u.
NCI-H358; 102 h: 3.84e+06 a.u. and 4.36e+06 a.u. and 5.27e+06 a.u. and 4.78e+06 a.u. and 3.97e+06 a.u.
A375; 174.52 h: 1.28e+08 a.u. and 1.27e+08 a.u. and 1.36e+08 a.u. and 1.38e+08 a.u. and 1.18e+08 a.u. and 1.09e+08 a.u.

Other studies, line by line
CN(C)CCCn1c(-c2ccccc2)c(-c2ccccc2)c2c1ncn1nc(-c3ccncc3)nc21 — remaining compound (mouse, microsomes or S9; 2 µM, 0.5 h): 85.1%
COc1ccc(-c2c(Nc3ccccn3)[nH]c3c(C4=CCCCC4)c(-c4ccccc4)nn3c2=O)cc1 — Clast (LC-MS/MS; human, plasma; oral, 50 mg once daily): 1090 ng/mL and 1190 ng/mL and 1150 ng/mL
Nc1ccn([C@@H]2O[C@H](CO)[C@@H](O)[C@@H]2O)c(=O)n1 — nuclear SOX9 intensity (mouse MPNST tumor cells; high-content immunofluorescence imaging, measured: nuclear SOX9; 10 µM, 12 h, mean of 2 replicates; baseline: DMSO control, higher = more nuclear SOX9): 128 % of DMSO and 107 % of DMSO
CC(C)C[C@@H]1NC(=O)[C@H](C)NC(=O)[C@H](Cc2cscn2)NC(=O)[C@@H](CC(C)C)NC(=O)[C@@H](CCC(=O)N2CCCC2)NC(=O)[C@H](CC(C)C)NC(=O)[C@@H](CC(C)C)NC1=O — lipophilic permeability efficiency (logD(dd/w) and ALogP; JT method): 2.32
C[C@@H]1C[C@H]2[C@@H]3CCC4=CC(=O)C=C[C@]4(C)[C@@]3(F)[C@@H](O)C[C@]2(C)[C@H]1C(=O)CO — log2 fold change (Sarcocystis neurona; parasite growth; 10 µM, 96 h; baseline: untreated): -0.11
CC(C)C[C@@H]1NC(=O)[C@H](C)NC(=O)[C@H](C)NC(=O)[C@H](CCC(=O)N2CCCC2)NC(=O)[C@H](CC(C)C)NC(=O)[C@H](CC(C)C)NC(=O)[C@@H](CC(C)C)NC1=O — lipophilic permeability efficiency (logD(dd/w) and ALogP; JT method): 1.57
O=C(COc1ccc(Cl)cc1Cl)Nc1nc2n(n1)C(c1ccccc1)CC(=O)N2 (centres unmarked) — remaining compound (mouse, microsomes or S9; 2 µM, 0.5 h): 45.4%

Repeated from above (study 3):
MEL-JUSO; 180.52 h: 1.51e+07 a.u. and 1.69e+07 a.u. and 1.95e+07 a.u. and 1.7e+07 a.u. and 1.64e+07 a.u. and 2e+07 a.u.
NCI-H358; 102 h: 3.84e+06 a.u. and 4.36e+06 a.u. and 5.27e+06 a.u. and 4.78e+06 a.u. and 3.97e+06 a.u.
A375; 174.52 h: 1.28e+08 a.u. and 1.27e+08 a.u. and 1.36e+08 a.u. and 1.38e+08 a.u. and 1.18e+08 a.u. and 1.09e+08 a.u.
